Measurements pooled from the literature.
Each line is one published result; not all experiments were run side by side.
Cell line: OVCAR-3

| Compound | assay | setting | how to read | endpoint | result |
| --- | --- | --- | --- | --- | --- |
| CC(C)c1cccc(C(C)C)c1[N+]#[C][Pt-]([Cl])([Cl])=[C](Nc1cccc(CN[C](NC(C)(C)C)=[Au][Cl])c1)Nc1c(C(C)C)cccc1C(C)C | cell growth or viability |  |  | IC50 | > 100 µM |
| CC(=O)OC[C@H]1O[C@@H](Sc2sc(C(=O)c3ccc(C)cc3)c(N)c2-c2nc3ccccc3s2)[C@H](OC(C)=O)[C@@H](OC(C)=O)[C@H]1OC(C)=O | SRB | 10 µM, 48 h | baseline: untreated | growth | 65.9% |
| CC(=O)c1cccc(NC2C(N)C(NC(=O)N(C)C)(C(C)O)C(O)C2(O)COC(=O)c2c(C)cccc2O)c1 (centres unmarked) | cell growth or viability, SRB |  |  | GI50 | 0.041 µM |
| COc1ccc(CC2COC(=O)C2Cc2ccc3c(c2)OCO3)cc1OC (mixture of isomers) | MTT | concentration not given, 72 h |  | viability | decreased |
| CC(=O)OC[C@H]1O[C@@H](Sc2sc(C(=O)c3ccc(Br)cc3)c(N)c2-c2nc3ccccc3s2)[C@H](OC(C)=O)[C@@H](OC(C)=O)[C@H]1OC(C)=O | SRB | 10 µM, 48 h | baseline: untreated | growth | 67.1% |
| Cc1cc(C)c([N+]#[C][Pd-]([Cl])([Cl])=[C](Nc2ccc(CN[C](Nc3c(C(C)C)cccc3C(C)C)=[Au][Cl])cc2)Nc2c(C)cc(C)cc2C)c(C)c1 | cell growth or viability |  |  | IC50 | > 100 µM |
| COc1ccc2c(c1)/C(=N\Nc1nnc3n1N=C(c1ccccc1)CS3)C(=O)N2 | cell growth or viability, SRB | 10 µM |  | inhibition | 17% |
| CC/C=C\C/C=C\C/C=C\C/C=C\C/C=C\C/C=C\CCC(=O)Nc1ccn(C2OC(CO)C(O)C2(F)F)c(=O)n1 (centres unmarked) | cell growth or viability, SRB |  |  | GI50 | 11.1 µM |
| CC(=O)O[C@H]1C(=O)[C@]2(C)[C@@H](OC(=O)[C@H](N)CSC3CC(=O)N(CCC(=O)Nc4ccc(-c5ccc(/N=N/c6ccc7c(S(=O)(=O)O)cc(S(=O)(=O)O)c(N)c7c6O)c(C)c5)cc4C)C3=O)C[C@H]3OC[C@@]3(OC(C)=O)[C@H]2[C@H](OC(=O)c2ccccc2)[C@]2(O)C[C@H](OC(=O)[C@H](O)[C@@H](NC(=O)c3ccccc3)c3ccccc3)C(C)=C1C2(C)C (some centres unmarked) | annexin V/PI flow cytometry | concentration not given, 24 h |  | late apoptotic cells | 36.5% |
| Cc1cc(C)c([N+]#[C][Pd-]([Cl])([Cl])=[C](Nc2cccc(CN[C](Nc3c(C(C)C)cccc3C(C)C)=[Au][Cl])c2)Nc2c(C)cc(C)cc2C)c(C)c1 | cell growth or viability |  |  | IC50 | 26 µM |
| CC(Cc1ccc(Cl)cc1)=C(c1ccc(Cl)cc1)c1ccc(OCCN(C)C)cc1 | cell growth or viability |  |  | GI50 | 4.53 µM |

Repeated from above:
| Compound | assay | setting | how to read | endpoint | result |
| --- | --- | --- | --- | --- | --- |
| CC(=O)OC[C@H]1O[C@@H](Sc2sc(C(=O)c3ccc(Br)cc3)c(N)c2-c2nc3ccccc3s2)[C@H](OC(C)=O)[C@@H](OC(C)=O)[C@H]1OC(C)=O | SRB | 10 µM, 48 h | baseline: untreated | growth | 67.1% |
